Assay results from different studies.
Every numbered part comes from another study and shows a few of its results, in no order. Changes are numbered by the printed parent chain.

Study 1 — technique: DHFR PCA, deep sequencing; sample: yeast; added: (+)-ABA 58 µM; reference: wild-type fitted maximum; direction: higher = stronger binding
Target: ABI1, truncated, D143A, DHFR fusion (Arabidopsis thaliana)
Setting: methotrexate growth selection, single substitutions
Parent: PYL1, truncated, DHFR fusion (Arabidopsis thaliana); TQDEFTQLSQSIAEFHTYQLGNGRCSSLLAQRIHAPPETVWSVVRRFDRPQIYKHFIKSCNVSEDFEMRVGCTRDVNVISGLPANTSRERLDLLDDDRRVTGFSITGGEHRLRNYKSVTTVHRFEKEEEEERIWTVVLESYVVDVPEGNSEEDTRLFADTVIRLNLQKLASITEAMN
Under “relative binding score”, `A84F` is recorded as 43.1%.
Under “relative binding score”, `L138R` is recorded as 2.69%.
For `V40M`, “relative binding score” read -14%.
Under “relative binding score”, `V44H` is recorded as -8.55%.
Under “relative binding score”, `G23C` is recorded as 60.9%.
Under “relative binding score”, `E129K` is recorded as 98%.
`E109T`: “relative binding score” 88.5%.
Under “relative binding score”, `D3K` is recorded as 80%.
`T17H`: “relative binding score” 80.1%.
`S117L` — result for “relative binding score”: 0.727%.
Under “relative binding score”, `P36H` is recorded as 85.6%.

Study 2 — target: CCNF, cyclin fold, Cln2 fusion (human); technique: yeast growth competition, sequencing; sample: yeast; setting: strong parent motif; reference: not given; direction: higher = stronger binding
Parent: DTL docking peptide (human); PSSMRKICTYFHR
Under “normalised enrichment score”, `C8A` is recorded as 0.683.
For `I7A`, “normalised enrichment score” read 1.14.
Under “normalised enrichment score”, `K6A` is recorded as 1.99.
`P1A` — result for “normalised enrichment score”: 1.61.
`Y10A`: “normalised enrichment score” 1.55.
`S3A`: “normalised enrichment score” 2.

Study 3 — technique: RNA Bind-n-Seq; form: RNA; sample: in vitro; tested at: not given; setting: RNA with constant flanks, ends assumed; reference: input RNA pool; direction: higher = stronger binding
Target: RING finger protein unkempt homolog, zinc fingers 1-6, GST-SBP tag (UNK, Homo sapiens, UniProt Q9C0B0, residues 30-357)
Sequence of UniProt Q9C0B0 (30-357, looked up): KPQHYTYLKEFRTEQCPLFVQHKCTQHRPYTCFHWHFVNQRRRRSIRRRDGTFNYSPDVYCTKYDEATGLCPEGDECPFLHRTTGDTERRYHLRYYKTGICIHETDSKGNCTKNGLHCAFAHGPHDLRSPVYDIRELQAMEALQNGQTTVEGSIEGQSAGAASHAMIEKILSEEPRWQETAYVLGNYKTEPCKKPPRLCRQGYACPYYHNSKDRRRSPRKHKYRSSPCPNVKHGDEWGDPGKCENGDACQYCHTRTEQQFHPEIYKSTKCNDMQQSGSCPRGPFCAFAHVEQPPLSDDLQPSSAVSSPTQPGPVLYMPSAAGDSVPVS
`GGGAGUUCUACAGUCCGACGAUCAAGAGCAGAGGAAAUAACUUUACUGCAAAUCAGAACAAUGAUGAUAAUAUUCCAAACACCACCCGUGACUGCAGGCUGGAGAGUGAGGCCCCCUAUUUGUUGAGUCCAGAGGCUGGGCCUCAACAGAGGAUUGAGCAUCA` gave a bound/input enrichment of 0.208 ratio.
`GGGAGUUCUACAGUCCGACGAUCCAUGUAACUGUGAAGAAGCUGUUUGUUGGCGGAAUUAAAGAAGAUACUGAGGAACAUCACCUCCGAGAUUACUUUGAGGAAUAUGGAAAAAUUGAUACCAUUGAGAUAAUUACUGAUAGGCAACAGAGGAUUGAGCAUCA` gave a bound/input enrichment of 0.408 ratio.
The bound/input enrichment of `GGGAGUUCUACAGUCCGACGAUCCUCUAGGCUUUUCAGAUGUGGAUCAUACCUAUGCUCAAAGAACUCAGCUCUUUGACACCUCCGUAAAUUUCUUUCCUGACAGCAUGACUCCUCCUAAAGGCAACCUGGUAGACCUGAUCACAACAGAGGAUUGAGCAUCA` is reported as 0.593 ratio.
With `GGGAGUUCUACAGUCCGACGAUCUCGUAUAUCAGAUAUCUGGGACCCAAAGUCCCAACCUUUACAAACCUGGGUCUCUGUUUUACCGAAUUUAAAAUACCUGGGAUUCAGGACCCUGUGUGCACCAAUAUCCGGGGUUCAUCCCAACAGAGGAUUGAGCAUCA` the bound/input enrichment was 0.132 ratio.
`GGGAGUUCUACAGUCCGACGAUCUUAGGGUGCUCUUUGAGAGCAUAGUCUUAUAUCUGGGGACUAAAAUGUCAUUAGACCCUAACCGACCAAGUUAUAUGUUUGUGUAGGAAAAAGGUUUCCUCUCUCGUUCAAGGUAAUUGUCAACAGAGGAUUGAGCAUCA` has a bound/input enrichment of 0.19 ratio.
`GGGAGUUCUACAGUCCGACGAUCAAUGGACAAGAAGUCAAAAUCGAUCAGAGAAAUGUUAAAAAAGAGUUCACUAGCCAUGCUUCCGAUUCUCAUAUCUUAGAUUAUUAUGAAAAUCCAGCCAUCAAAGAGGAUGUAUCAACACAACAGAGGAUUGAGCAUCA` gave a bound/input enrichment of 0.882 ratio.
`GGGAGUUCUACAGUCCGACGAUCCCAGGCAUGAAAGUCCAAGUGCGGUAUGGACGAGGGAAAAAUCAAAAAAUGUAUGAAGCCCGUAUAAAAGAUUCUGAUGUCGAAGGUGGAGAGGCCCUUUACUUGGUGCAUUACUGCGGACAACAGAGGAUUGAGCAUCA` has a bound/input enrichment of 0.215 ratio.
The bound/input enrichment of `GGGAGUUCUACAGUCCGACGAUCUCUAGAGCUCCCCCAAGACUGACUGUAGUGUCCCCUAACCGAGCUACUUCAACGGAAACCCGCUCAUCUGUAGAGACUGAUUUGCAACCCUUCCGGGAAGCCAUAGCUCUGCAUGGUCUUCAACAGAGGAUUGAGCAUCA` is reported as 0.905 ratio.
`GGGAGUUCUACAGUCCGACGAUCGCCAUCACGACACUGCAUAAUCUCCUGCUCCAUCAGGAAGGAGCUAAAAUGGCAGUGCGCCCCGCUGGUGGACUGCAGAAAAUGGUUGCUUUGCUCAACAAAACAAACGUGAAAUUCUUGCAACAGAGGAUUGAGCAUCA` gave a bound/input enrichment of 0.0463 ratio.
The bound/input enrichment of `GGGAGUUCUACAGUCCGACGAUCCAUGCAAUCUUGUAAUGUGGCCUGAAAACAAGCUAACUGUAUUAGAAACUAUUCAAAAACCCGGUAUUUUUAGUGACCUGUAGGCAGUGGCAAAUACAGACAUGUGAACCUUGAAUACAUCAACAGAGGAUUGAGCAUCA` is reported as 0.637 ratio.
For `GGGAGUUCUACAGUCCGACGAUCGGCAGCAAAAGGCACAGUAGGUCAAGAAGCAGGUCUCGAUCCCGGACCAGAAGUUCCUCCCGGUCUCGUAGCCGAUCCCGUUCCCGUAGUCGCAAAUCUUACAGCCGGUCAAGAAGCAGGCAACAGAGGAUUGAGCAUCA`, the bound/input enrichment was 0.299 ratio.

Study 4 — technique: RNA Bind-n-Seq; form: RNA; sample: in vitro; tested at: 365 nM; reference: no-protein control; direction: higher = stronger binding
Target: RNA binding protein fox-1 homolog 2, RRM domain, GST-SBP tag (RBFOX2, Homo sapiens, UniProt O43251-10, residues 100-194)
Setting: natural RNA segment, single round, ends assumed
Residues (chain): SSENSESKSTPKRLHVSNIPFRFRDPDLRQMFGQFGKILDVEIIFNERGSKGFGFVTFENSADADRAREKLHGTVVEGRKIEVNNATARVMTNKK
Under “RBNS enrichment (R)”, `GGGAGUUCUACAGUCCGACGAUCCGUGCUUCCUUUUUUCCUUUCCCAACAGUCCAAGAGCGCAGGAUCCAACUUUCUAGUCACGCUGUUCUGUAUUCAGUCAGCCCACAAGAAUAUGCAAACUCCAUCUCAAAUGGAAUUCUCGGGUGCCAA` is recorded as 0.297.
`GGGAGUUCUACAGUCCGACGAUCUUACAACAUUGCACAGCUGUGUAGAAACCCCGUGUUCUUUCCCAUAGGUGCCAAUUUGGGUGGGGGAGGAAGGAACAAUUACAAGAUCCCCAUCUGUCUGCCCAUGCCACUGGAAUUCUCGGGUGCCAA` — result for “RBNS enrichment (R)”: 0.461.
For `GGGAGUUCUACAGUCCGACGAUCUUCUAAGAGAUUUGCAAUGCAAGGUCUCCUUGACCCCUUGCCACAACUGGAAACACUUGAAAGGGGACCCCAGGGCCAGCUGUUUCAGGGGUUUCCUGGACCACCCACUGUGGAAUUCUCGGGUGCCAA`, “RBNS enrichment (R)” read 0.202.
`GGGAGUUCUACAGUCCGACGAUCUAAUGUUGCCUGCAGCCCACAUAAAGUGCAGGCAGGAUCAGAAGUAGCCAAGUAGGUUCACUGAGGUUCCAGACUCUUCCACUGGCCUGGGGCCAUGGACAUCUUGUGAGUGGAAUUCUCGGGUGCCAA` — result for “RBNS enrichment (R)”: 0.707.
Under “RBNS enrichment (R)”, `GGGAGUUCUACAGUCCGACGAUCUCUGGAAGCCCCAGCACCGGGGGGCUUUUGGGCACAGGGUCAGUGGUAGCCAUCUUAGACACUGACAUUUGGCUUUGUCGUCAAUUUCAUCACCCUCCUUGAGGUUACUGUGGAAUUCUCGGGUGCCAA` is recorded as 0.476.
`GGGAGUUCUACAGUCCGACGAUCGUUUUCCAAGAGUGUACCAUUAACUUGAUUGUUGAUAAUAAAAAGAAAAAGCAAGUCUAAGCAAGUACCUCUCUGGACUUUCUCUUGAGCUUUCUUAUUUAAAUCAAUCUUGGAAUUCUCGGGUGCCAA`: “RBNS enrichment (R)” 0.365.
For `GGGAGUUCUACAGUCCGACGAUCAGCAAAGAACAGCAUCACCUUGAUAAAUGUCUUGACUCAGUCUGCGGCUUGUGAUCUGAAAAGUUCUCUAGGGUACCCUGGUUUUUGAAAUAUGCCUUCCUGCUGAGCUGUGGAAUUCUCGGGUGCCAA`, “RBNS enrichment (R)” read 0.448.
Under “RBNS enrichment (R)”, `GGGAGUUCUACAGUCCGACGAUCGCAGCACAAGGUGCACUUCAUGGUCUCACUGGACCAUUCCAUGUGGUUCCACGCCCCCUUCCGAGCUGACCACUGGAUGCUCUAUGAAUGCGAGAGCCCCUGGGCCGGUGUGGAAUUCUCGGGUGCCAA` is recorded as 1.1.
`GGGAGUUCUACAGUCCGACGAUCGUGACUUUGAGGCCUACGGGAAAAUCUGUGACCCAGGGCUGACCUCGUUUGAGCCUGAAGCACUGGGCAACCUGGUUGAAGGGAUGGACUUCCACAGAUUCUACUUCGAGUGGAAUUCUCGGGUGCCAA` — result for “RBNS enrichment (R)”: 0.223.
`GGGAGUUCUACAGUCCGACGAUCAAUAAAAGGCUUCCAGAGGAGAGUGGCCUGGGUCCCAGGGCUGGCCCUAGGCACUGAUAGUUGCCUUUUCUUCCCCUCCUGUAAGAGUAUUAACAAAACCAAAGGACACAUGGAAUUCUCGGGUGCCAA`: “RBNS enrichment (R)” 0.517.
Under “RBNS enrichment (R)”, `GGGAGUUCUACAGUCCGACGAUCCUGCCCUUUUGGCAAAGUUACCUUGAACAAAGAAUCUUAAGGGUUUAUUAAGAACUCUUUAUUUUCUUCAUACCCUGUUCUCUGCAGUGCUUUCUAACAGCUUCUGGGUGUGGAAUUCUCGGGUGCCAA` is recorded as 0.276.
`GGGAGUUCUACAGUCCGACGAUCGAGGCAGCCAUUAGGCUGUAGGCCUGCUUACUGCAUAGCACUGGACGUGCCAGGCACAUUCUGGCCCCUGGCAUGCUUAAGUAACUAGGUUUUCAAAUGUGGGAAACCAAUGGAAUUCUCGGGUGCCAA` — result for “RBNS enrichment (R)”: 0.367.

Study 5 — technique: protein binding microarray; form: double-stranded DNA, one strand shown; sample: in vitro; tested at: not given; reference: not given; direction: higher = stronger binding
Target: Histone acetyltransferase KAT6A, both winged helices, GST fusion (KAT6A, Homo sapiens, UniProt Q92794, residues 1-181)
Setting: 8-mer, flanks averaged, mean of 2 arrays, mostly near background
Target sequence (chain): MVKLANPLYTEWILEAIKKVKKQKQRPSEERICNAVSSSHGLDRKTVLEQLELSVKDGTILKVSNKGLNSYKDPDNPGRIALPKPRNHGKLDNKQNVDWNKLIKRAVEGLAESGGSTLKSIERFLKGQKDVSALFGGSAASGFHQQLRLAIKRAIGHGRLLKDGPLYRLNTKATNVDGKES
`AAGCTCGT` gave an E-score of -0.198.
With `ACATTCGG` the E-score was 0.0324.
The E-score of `GGAATGGA` is reported as 0.0326.
`CCAAGCGA` has an E-score of -0.0377.
The E-score of `AGCCGCAG` is reported as 0.15.
`GAATCGAC` has an E-score of -0.00575.
With `CCTAGCTC` the E-score was -0.166.
`ATTATTCA` has an E-score of -0.155.
`ATCAGGAT` has an E-score of -0.0919.
`ACTGCATC` has an E-score of -0.179.
`GAGTAACC` has an E-score of 0.0341.
`AACCGACG` gave an E-score of 0.264.
`AGACTTAC` gave an E-score of -0.0735.
`CGGGTGAA` gave an E-score of 0.157.
For `TGTAGACA`, the E-score was -0.195.
`CGTAGTCC` has an E-score of 0.0343.
The E-score of `CGTGAGTC` is reported as 0.0821.
For `CACCCAGG`, the E-score was -0.163.
For `AATACACC`, the E-score was -0.0435.
With `CGACGCTA` the E-score was 0.247.
The E-score of `AGCTGAAC` is reported as -0.319.
`CATTGCGA` has an E-score of 0.0624.
For `GGTACCAC`, the E-score was -0.204.
`CCAGATTC` has an E-score of -0.159.
`TCAGCCAA` gave an E-score of -0.153.

Some of these lines once more (study 5):
`CGTAGTCC` has an E-score of 0.0343.
The E-score of `CGTGAGTC` is reported as 0.0821.
For `CACCCAGG`, the E-score was -0.163.
For `AATACACC`, the E-score was -0.0435.
With `CGACGCTA` the E-score was 0.247.
The E-score of `AGCTGAAC` is reported as -0.319.
`CATTGCGA` has an E-score of 0.0624.
For `GGTACCAC`, the E-score was -0.204.
`CCAGATTC` has an E-score of -0.159.
